Assay results of several laboratories.
Parts stem from different laboratories: compare values within a part only. Positions count from the first letter of the parent shown.

Set 1
Target: RNA binding protein fox-1 homolog 2, RRM domain, GST-SBP tag (RBFOX2, Homo sapiens, UniProt O43251-10, residues 100-194)
Technique: RNA Bind-n-Seq
Molecule type: RNA
Sample: in vitro
Concentration: 365 nM
Setting: natural RNA segment, single round, ends assumed
Baseline: no-protein control
Reading: higher = stronger binding
Target sequence (chain): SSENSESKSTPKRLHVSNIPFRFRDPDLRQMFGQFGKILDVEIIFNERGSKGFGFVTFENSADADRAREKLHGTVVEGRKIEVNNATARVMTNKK
For `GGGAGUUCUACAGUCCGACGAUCACAUGUUCACACAUGCACACUCACGCUCACACAUGCUGUCACGCAUACACACACGCACAUACUCCUGCACAUGUUCCCAUGCAUGUGUGUGCACUCGGACCGAGCAUCUCUGGAAUUCUCGGGUGCCAA`, “RBNS enrichment (R)” read 1.56.
For `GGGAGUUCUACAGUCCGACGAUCACUUAGUGGUUUUCUCUAUUUUGAAAUUUUUUGAUCAAAAACUGAUUAGUGAAUAUAGUUUGGAGUUUGGCUUCGUGUCCUGGGUUCUUCCCCGUCCCUUUUCUGUCAGCUGGAAUUCUCGGGUGCCAA`, “RBNS enrichment (R)” read 0.672.
For `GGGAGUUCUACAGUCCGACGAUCGCUCUCUUCUUAUGGAUACCUGCAUUUAACUUGUGGACUAUGUAAACACAAUAUAUAUCAAUAUCUAUAUAUCUAUAUAUCGAUCUAUAUAAACUACUAGCUUUUCCUUUUGGAAUUCUCGGGUGCCAA`, “RBNS enrichment (R)” read 0.452.
For `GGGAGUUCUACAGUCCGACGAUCGAGCUUUCUAUUUGGCACAUACCAGGGGUCCAGCUACUGGAAGGGCUCUACCCCAAACUCUGAGGACUACCUUACAGCUGACUUAAGUGUCUCACUAAAGCAUGAAAUGUUGGAAUUCUCGGGUGCCAA`, “RBNS enrichment (R)” read 0.769.
Under “RBNS enrichment (R)”, `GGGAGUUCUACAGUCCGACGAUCGUGUCUUGCCUUUUAAUCAUGAACAGUUACAUGAUUUAUAAUUUCACUGAUUGAGAUUACUUUGUAAGUAGCUGUUCAGAAGAAUAAAAUAUGACUGUUUUAGGGACUAGUGGAAUUCUCGGGUGCCAA` is recorded as 0.321.
For `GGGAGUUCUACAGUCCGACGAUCGCCAGCGUGGCCACCAAUAAGAUGAAAACAGAAGGAAGUUACAAUAUGAAAGACAGCACCUCACUGCUCCUGCAGACACAAGGGCCACCGGGGAGUUCCUGAAAGACUAGUGGAAUUCUCGGGUGCCAA`, “RBNS enrichment (R)” read 0.63.
`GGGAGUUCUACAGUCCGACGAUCUUUUUAUGAAAAAAAAGGAAAAUGGUUUCCCAUUUGGUUUUAUAUGUGUUAAAUAAAUGUGUAAAGUAACCACCAAAUGUUAUUAGAAUUUUUCUUCUAGCAUUUAUAAUUGGAAUUCUCGGGUGCCAA`: “RBNS enrichment (R)” 0.586.
`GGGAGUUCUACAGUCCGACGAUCGCCUUCCACACUAGAUGGUCCAAUCCUACUGGAUGGUCGGUUGCUGCUCACAUCUGCCUGCAAGUCUUUCCAGUACUCCUGGGAUAUCCUGUAAUAGACUCGGGUCCUGUUGGAAUUCUCGGGUGCCAA` — result for “RBNS enrichment (R)”: 0.2.
`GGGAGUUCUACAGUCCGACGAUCGAGUGGGUAGGGCAAAAAGAGCCCUUUCCGCCCUCUACCCAUCUAAUUCUGAUCCUCUACCUGUAGGAGGACUUUGGUGUGAUCAUCCUUCUCCCAGGGCCCGGCUACCCUGGAAUUCUCGGGUGCCAA` — result for “RBNS enrichment (R)”: 0.253.
For `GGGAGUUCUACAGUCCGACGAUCGACCCAAGGGCCCUUUGGUGUGUAGUGUACAGCACCUUAUUUUAGCAUCAAUAAAUCCAUUAUCCAGUUUUUGAAAAAUCAACUCCAAGGACUGGGUUUAUCUUUCAGUUUGGAAUUCUCGGGUGCCAA`, “RBNS enrichment (R)” read 0.552.
`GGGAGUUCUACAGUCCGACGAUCGGACGUGGAGGUAGGUGGAUCACUGCAAGUUUGAGGCUAGCAUGGUCAAUAAAGAUAGUUCAAGGCCAGCUUGGACUAUAUGAUAUGACUGCCCAAUUUUAAAGUUAUUCUGGAAUUCUCGGGUGCCAA`: “RBNS enrichment (R)” 1.87.
`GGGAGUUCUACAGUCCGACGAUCCUUUGGGGAUAUAUGGUACGUUGUUUUUGUUUUUUAGACUUAAUAAAGGACAACACGAGCUGGUCUUGUGUUGCUGGUUCCUAUUCAGUAUUUCCUGGGGAUUGUUUGCUUGGAAUUCUCGGGUGCCAA`: “RBNS enrichment (R)” 0.617.

Set 2
Target: Interferon regulatory factor 3, full length, phosphomimetic (IRF3, Homo sapiens, UniProt Q14653, residues 1-427, S386D/S396D/S398D/S402D/T404D/S405D)
Technique: protein-binding microarray
Molecule type: double-stranded DNA, one strand shown
Sample: in vitro
Concentration: 2540 nM top
Setting: 60-bp whole probe
With: salmon DNA 0.4 mg/ml
Baseline: random background probes
Reading: higher = stronger binding
Constant ends, left off below: GCCTAGCAC … GTCTTGATTCGCTTGACGCTGCTG
Residues (chain): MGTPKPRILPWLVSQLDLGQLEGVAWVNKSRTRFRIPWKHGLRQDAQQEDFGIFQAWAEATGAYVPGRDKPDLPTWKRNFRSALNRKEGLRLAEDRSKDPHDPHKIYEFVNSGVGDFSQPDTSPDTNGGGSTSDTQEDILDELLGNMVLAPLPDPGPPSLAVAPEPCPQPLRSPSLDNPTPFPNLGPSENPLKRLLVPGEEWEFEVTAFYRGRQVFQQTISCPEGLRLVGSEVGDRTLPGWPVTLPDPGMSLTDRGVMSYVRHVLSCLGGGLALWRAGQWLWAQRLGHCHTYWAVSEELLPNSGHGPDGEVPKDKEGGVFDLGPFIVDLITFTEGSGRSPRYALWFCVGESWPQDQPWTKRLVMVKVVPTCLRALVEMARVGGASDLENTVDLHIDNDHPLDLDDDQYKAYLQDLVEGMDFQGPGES
Under “fitted relative affinity”, `GACGATTTCATTATCGAGACGTGCTAG` is recorded as 2.46 z-score.
For `TTCGGTATCCTACTGCTTTAGTGCTAG`, “fitted relative affinity” read 3.01 z-score.
`TTAGGTCCCCTTTTCCTTTAGTGCTAG`: “fitted relative affinity” 3.61 z-score.
`GACGAACTGGGGTTTCGCGACGTGCTA` — result for “fitted relative affinity”: -0.387 z-score.
`GACCGACTGCTTCTCCTGACGTGCTAG` — result for “fitted relative affinity”: 0.0201 z-score.
`CATTGCCTGTTTTTCCCCTGGTGCTAG`: “fitted relative affinity” 0.824 z-score.
For `TCAGTTCTTAGCTTGGGACTGTGCTAG`, “fitted relative affinity” read 0.74 z-score.
Under “fitted relative affinity”, `TTAGATCTCAGTCTCGATGAGTGCTAG` is recorded as 0.35 z-score.
Under “fitted relative affinity”, `TCATGTTTTTCATTATTACTGTGCTAG` is recorded as 0.981 z-score.
Under “fitted relative affinity”, `CTAATTTCCATTTTCTAAATGTGCTAG` is recorded as 6.38 z-score.
For `TCAGTTCACTATTTAAGACTGTGCTAG`, “fitted relative affinity” read 1.83 z-score.
For `GACGATTTCAGACTGGATACGTGCTAG`, “fitted relative affinity” read 1.17 z-score.
`GGAAATATTTACCTCTCACGGTGCTAG`: “fitted relative affinity” 0.468 z-score.
Under “fitted relative affinity”, `GGTCTTTTCGCTTTCTTTACGTGCTAG` is recorded as 2.97 z-score.
`TCCCTTTTCATGCTCTTATAGTGCTAG`: “fitted relative affinity” 3.82 z-score.
For `ATATATATATTATATATTTATGTGCTA`, “fitted relative affinity” read 0.681 z-score.
For `GACGGTATCCTTATCCTCACGTGCTAG`, “fitted relative affinity” read 5.04 z-score.
`GACGGTATCCTTTCCCTGACGTGCTAG` — result for “fitted relative affinity”: 7.12 z-score.
Under “fitted relative affinity”, `TTGCCTCACCTCACCTGTCCGTGCTAG` is recorded as 0.553 z-score.
Under “fitted relative affinity”, `TTAGGTATCGGGGTTCGGTTAGTGCTA` is recorded as 0.774 z-score.
`GTTTTTTTCTACTTCTCTTTGTGCTAG` — result for “fitted relative affinity”: 1.87 z-score.
`CCCAGGGTCTGTTTGGGTCTGTGCTAG`: “fitted relative affinity” -0.361 z-score.
`TTAGATTTCAGTATCGATGAGTGCTAG`: “fitted relative affinity” 2.22 z-score.
`TTAGAACTGAGCCTGGATTAGTGCTAG` — result for “fitted relative affinity”: -0.65 z-score.
For `TTTGGTATCGACTATCGGTTAGTGCTA`, “fitted relative affinity” read 0.616 z-score.

Set 3
Target: CCND2, cyclin fold, Cln2 fusion (human)
Technique: yeast growth competition, sequencing
Sample: yeast
Setting: weak parent motif
Baseline: not given
Reading: higher = stronger binding
Starting sequence: SLBP docking peptide (human); ARYKRKLLINDFG
`N10A`: “normalised enrichment score” 0.157.
Under “normalised enrichment score”, `R2K` is recorded as 0.247.
For `L7Q`, “normalised enrichment score” read 0.183.
Under “normalised enrichment score”, `L8H` is recorded as -0.168.
For `R5T`, “normalised enrichment score” read -0.197.
Under “normalised enrichment score”, `D11E` is recorded as 0.463.
`G13I` — result for “normalised enrichment score”: -0.205.
For `D11N`, “normalised enrichment score” read -0.101.
For `I9H`, “normalised enrichment score” read 0.325.
Under “normalised enrichment score”, `R2S` is recorded as -0.0427.
`F12C` — result for “normalised enrichment score”: -0.151.
Under “normalised enrichment score”, `N10C` is recorded as 0.226.
`N10P` — result for “normalised enrichment score”: -0.0457.
For `G13V`, “normalised enrichment score” read 0.474.

Further values, each from its own experiment
For `PhoQ, residues 284 288 289 292 302 303 SNGLAW`, the fold induction was 9.62 (PhoP, residues 12 14 15 18 19 AQCLL (Escherichia coli, UniProt P23836); Sort-seq, refers to: YFP reporter; E. coli; PhoQ-PhoP variant library, with: 10 µM Mg2+; baseline: high Mg2+ state, higher = stronger signaling).

A few entries again (set 2):
`GACGAACTGGGGTTTCGCGACGTGCTA` — result for “fitted relative affinity”: -0.387 z-score.
`GACCGACTGCTTCTCCTGACGTGCTAG` — result for “fitted relative affinity”: 0.0201 z-score.
`CATTGCCTGTTTTTCCCCTGGTGCTAG`: “fitted relative affinity” 0.824 z-score.
For `TCAGTTCTTAGCTTGGGACTGTGCTAG`, “fitted relative affinity” read 0.74 z-score.
Under “fitted relative affinity”, `TTAGATCTCAGTCTCGATGAGTGCTAG` is recorded as 0.35 z-score.
Under “fitted relative affinity”, `TCATGTTTTTCATTATTACTGTGCTAG` is recorded as 0.981 z-score.
Under “fitted relative affinity”, `CTAATTTCCATTTTCTAAATGTGCTAG` is recorded as 6.38 z-score.
For `TCAGTTCACTATTTAAGACTGTGCTAG`, “fitted relative affinity” read 1.83 z-score.
